Results collected from several papers.
Lines come from different studies, so protocols differ. Numbers after ± are the reported error.

`O=Cc1c(O)ccc2ccccc12` — result for mRNA level: “increased” (hCMEC/D3; qPCR, refers to: KLF4, KLF2; 25 µM, 12 h; relative to: control).
With `Cc1ccc(C(C)C)cc1.[Cl-].[Cl][Ru+].[Ru+].c1ccc(-c2cn(CCCCOc3ccccc3-c3nc4ccccc4s3)nn2)nc1` the necrotic cells was 5.73% (MCF7; annexin V/PI flow cytometry; 4 µM, 24 h).
`COc1cc(CN2CCN(c3ccc([N+](=O)[O-])cc3)CC2)c2cc3[n+](cc2c1O)CCc1cc2c(cc1-3)OCO2` gave a therapeutic index of 30.9 (Ca-Ski and MDCK; SRB; 48 h; relative to: CC50 MDCK over IC50 Ca-Ski).
For `CC(C)C[C@@H]1NC(=O)[C@H](C(C)C)NC(=O)[C@H](CC(N)=O)NC(=O)[C@H](CO)NC(=O)[C@H](CO)NC(=O)[C@H](CC(=O)O)NC(=O)[C@H](CC(=O)O)NC(=O)[C@H](Cc2ccccc2)NC(=O)[C@H](Cc2ccc(O)cc2)NC(=O)[C@@H](N)CSSC[C@@H](C(=O)N[C@@H](CCCCN)C(=O)N[C@@H](CCCCN)C(=O)N[C@@H](Cc2ccc(O)cc2)C(=O)N[C@@H](CCCNC(=N)N)C(=O)N[C@@H](CO)C(=O)O)NC1=O`, apoptotic cells read “inhibited” (NP-1 tubular epithelial cells; annexin V; concentration not given, added: hypoxia).
With `COc1cc(CNC(=O)C[C@H](C)CCC=C(C)C)ccc1OCc1cn(-c2cccc(Cl)c2)nn1` the growth percent was 89.5% (SK-MEL-5 melanoma cells; SRB; 10 µM, 48 h).
`CCC(=C(c1ccc(Cl)cc1)c1ccc(OCCCN(C)C)cc1)c1ccc(OC)cc1`: “alkaline phosphatase activity” 2.01 ± 0.55 (Ishikawa; 1 µM, 72 h, unit not given; relative to: DMSO).
`COc1cc(CNC(=O)C[C@H](C)CCC=C(C)C)ccc1OCc1cn(-c2cccc(C(F)(F)F)c2)nn1` has a growth percent of 73.6% (CAKI-1; SRB; 10 µM, 48 h).
With `C(=C/c1ccccc1)/c1ccccc1` the EC50 was over 50 µM (KG-1a; caspase-3 activity, flow cytometry; 24 h).
`CC(C)c1cccc(C(C)C)c1N1CCN(c2c(C(C)C)cccc2C(C)C)C1=[Se].[Cl][Ag]` gave a resistance factor of 0.5 (A2780 ADR; MTT; relative to: A2780 ADR over A2780).
For `COc1cc(CNC(=O)C[C@H](C)CCC=C(C)C)ccc1OCc1cn(-c2ccccc2F)nn1`, the growth percent was 68.2% (NCI-H23; SRB; 10 µM, 48 h).
For `COC(=O)CCC(=O)Oc1ccc(/C=C/C(=O)CC(=O)/C=C/c2ccc(O)c(OC)c2)cc1OC`, the apoptotic cells was 39.2 ± 0.49% (MHCC97H; Annexin V/PI flow cytometry; 20 µM, 24 h).
`N=C(N/N=C/c1cccs1)N/N=C/c1cccs1` has a selectivity ratio of 1 (PANC-1; crystal violet; 72 h; relative to: IC50 IMR-90 over IC50 PANC-1).
For `COc1cc(CNC(=O)C[C@H](C)CCC=C(C)C)ccc1OCc1cn(-c2cccc([N+](=O)[O-])c2)nn1`, the growth percent was 66.5% (NCI-H23; SRB; 10 µM, 48 h).
`CC(=O)OC[C@H]1O[C@@H](Sc2sc(C(=O)c3ccc(Br)cc3)c(N)c2-c2nc3ccccc3s2)[C@H](OC(C)=O)[C@@H](OC(C)=O)[C@@H]1OC(C)=O` has a growth of 80.2% (UACC-257; SRB; 10 µM, 48 h; relative to: untreated).
For `[Cl-].[Cl][Ru-]1[S+]=C(N2CCCC2)N[N+]1=Cc1ccc(N(c2ccccc2)c2ccccc2)cc1.c1ccccc1`, colony formation read “inhibited” (HeLa S3; 5 µM, 24 h, then 10 days growth).
With `O=C(/C=C/c1ccccc1Cl)NO` the LysoTracker signal was 1.5 ± 0.24 (SK-N-BE(2)-C; flow cytometry; 5.0 µM, unit not given; relative to: control).
`COc1cc(CNC(=O)C[C@H](C)CCC=C(C)C)ccc1OCc1cn(-c2ccc([N+](=O)[O-])cc2)nn1` has a growth percent of 35.9% (SK-MEL-5 melanoma cells; SRB; 10 µM, 48 h).
The selectivity ratio of `Cc1cc(C)cc(/C=N/NC(=N)N/N=C/c2cc(C)cc(C)c2)c1` is reported as 3.4 (PANC-1; crystal violet; 72 h; relative to: IC50 IMR-90 over IC50 PANC-1).
The viability of `COc1ccc([C@@H]2CC(=O)c3c(O)cc(O[C@@H]4O[C@H](CO[C@@H]5O[C@@H](C)[C@H](O)[C@@H](O)[C@H]5O)[C@@H](O)[C@H](O)[C@H]4O)cc3O2)cc1O` is reported as 53.4% (A549; cell growth or viability, MTS; 50 µg/mL, 72 h).
